Experimental data collected from several papers.
Numbered parts are unrelated; each lists some results of a single study. Substitutions count along the parent as printed.
Sequence of UniProt O75385 (whole entry, looked up): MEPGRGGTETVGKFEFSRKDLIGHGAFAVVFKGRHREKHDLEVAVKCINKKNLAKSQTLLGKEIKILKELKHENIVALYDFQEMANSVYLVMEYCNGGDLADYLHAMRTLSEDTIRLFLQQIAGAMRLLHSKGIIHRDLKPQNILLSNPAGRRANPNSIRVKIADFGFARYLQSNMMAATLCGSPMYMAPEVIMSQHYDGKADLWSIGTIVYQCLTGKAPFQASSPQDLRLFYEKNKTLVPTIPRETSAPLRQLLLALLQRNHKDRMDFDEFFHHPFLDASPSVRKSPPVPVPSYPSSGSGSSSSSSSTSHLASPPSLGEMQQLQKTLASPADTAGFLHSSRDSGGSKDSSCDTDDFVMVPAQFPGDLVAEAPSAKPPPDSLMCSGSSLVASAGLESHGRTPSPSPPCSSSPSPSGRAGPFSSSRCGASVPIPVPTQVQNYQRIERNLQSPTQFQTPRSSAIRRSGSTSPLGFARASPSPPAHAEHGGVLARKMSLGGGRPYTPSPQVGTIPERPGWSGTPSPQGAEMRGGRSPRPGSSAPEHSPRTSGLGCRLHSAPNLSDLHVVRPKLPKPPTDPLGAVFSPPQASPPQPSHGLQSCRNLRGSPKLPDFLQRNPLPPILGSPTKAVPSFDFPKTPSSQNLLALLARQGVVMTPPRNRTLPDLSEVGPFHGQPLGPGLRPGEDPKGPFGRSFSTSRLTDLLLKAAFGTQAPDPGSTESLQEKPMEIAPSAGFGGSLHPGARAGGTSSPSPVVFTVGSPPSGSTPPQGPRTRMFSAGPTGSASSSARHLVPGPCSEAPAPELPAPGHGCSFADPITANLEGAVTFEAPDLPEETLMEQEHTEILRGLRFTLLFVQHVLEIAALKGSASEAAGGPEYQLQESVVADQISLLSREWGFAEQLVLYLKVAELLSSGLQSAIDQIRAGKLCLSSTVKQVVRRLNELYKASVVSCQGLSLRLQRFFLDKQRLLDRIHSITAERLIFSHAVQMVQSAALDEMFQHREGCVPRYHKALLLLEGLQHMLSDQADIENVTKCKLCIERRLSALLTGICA

Block 1 — technique: DHFR PCA, deep sequencing; matrix: yeast; added: (+)-ABA 0 µM; baseline: wild-type fitted maximum; reading: higher = stronger binding; measurement: relative binding score
Target: ABI1, truncated, D143A, DHFR fusion (Arabidopsis thaliana)
Notes: methotrexate growth selection, single substitutions
Starting sequence: PYL1, truncated, DHFR fusion (Arabidopsis thaliana); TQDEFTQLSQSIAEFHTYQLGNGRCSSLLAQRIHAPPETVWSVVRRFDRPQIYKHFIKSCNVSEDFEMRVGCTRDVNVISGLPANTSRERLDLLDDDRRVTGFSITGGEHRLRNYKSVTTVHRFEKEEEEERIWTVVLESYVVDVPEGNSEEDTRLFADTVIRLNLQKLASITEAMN; partner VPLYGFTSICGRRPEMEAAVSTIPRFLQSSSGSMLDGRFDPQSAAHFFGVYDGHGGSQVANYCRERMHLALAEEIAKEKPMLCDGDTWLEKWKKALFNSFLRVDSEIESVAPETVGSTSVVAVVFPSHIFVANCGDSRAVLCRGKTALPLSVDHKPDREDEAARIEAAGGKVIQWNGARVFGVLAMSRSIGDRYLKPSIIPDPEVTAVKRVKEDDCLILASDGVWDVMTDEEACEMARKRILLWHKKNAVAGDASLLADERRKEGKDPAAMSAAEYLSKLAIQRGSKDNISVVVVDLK
A13T: 12.4%
H34L: 25%
E151A: 51.5%
N165S: 8.55%
R74D: -0.23%
N114E: -2.99%
F56L: 2.18%
I105V: 15.6%

Block 2 — technique: protein-binding microarray; form: double-stranded DNA, one strand shown; matrix: in vitro; concentration: not given; reading: higher = stronger binding; measurement: E-score
Target: Myc proto-oncogene protein, bHLH-zipper, MAX partner unstated (MYC, Homo sapiens, UniProt P01106, residues 368-449)
Sequence of UniProt P01106 (368-449, looked up): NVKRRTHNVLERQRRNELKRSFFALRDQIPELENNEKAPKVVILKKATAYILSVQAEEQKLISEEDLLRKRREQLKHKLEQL
Notes: k-mer, scored over probes, only values ≥0.25
GCGAGCAC: 0.267
CGTGCAGC: 0.361
CGTGGCAC: 0.434
GGCGCACA: 0.322
CATGGAAC: 0.287
CGCCTCCC: 0.29
ACCTCGTG: 0.475
CACGACCG: 0.256

Block 3 — technique: EMSA with sequencing; form: double-stranded DNA, one strand shown; matrix: in vitro; concentration: 10 and 20 nM; baseline: negative control set to 0; reading: higher = stronger binding; measurement: normalised bound fraction
Target: Hepatocyte nuclear factor 3-alpha (Foxa1, Mus musculus, UniProt P35582, residues 1-468, full length assumed)
Notes: whole designed probe, mean of two concentrations, ends assumed
Construct (chain): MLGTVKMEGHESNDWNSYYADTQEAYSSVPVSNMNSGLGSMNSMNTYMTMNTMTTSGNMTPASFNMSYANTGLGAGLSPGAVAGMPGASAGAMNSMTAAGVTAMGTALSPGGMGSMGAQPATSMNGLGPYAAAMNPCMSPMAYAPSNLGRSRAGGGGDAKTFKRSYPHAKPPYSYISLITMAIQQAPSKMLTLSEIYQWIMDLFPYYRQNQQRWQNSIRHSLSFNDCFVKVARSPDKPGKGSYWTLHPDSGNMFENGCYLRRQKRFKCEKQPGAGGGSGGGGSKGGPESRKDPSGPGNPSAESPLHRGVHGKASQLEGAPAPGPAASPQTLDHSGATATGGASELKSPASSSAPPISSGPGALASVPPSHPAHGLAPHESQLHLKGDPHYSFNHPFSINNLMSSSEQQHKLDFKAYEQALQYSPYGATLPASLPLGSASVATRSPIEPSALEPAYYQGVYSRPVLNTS
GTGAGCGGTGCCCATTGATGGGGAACAACCAGCTACTTTGGTGACTCATTTTTCTCCCTAACCCATGCTATTATACACTAATCCATGCATAACTTCCCTTTAATACAGATGACACAGACTGTTTACTTAGGATGGTTTTGCAATATGCACACTAACAAAGACTTTGTGAGCAGGAAGAATACCAGTTATTCAACCAAGTTTAAGAAAACAGCTGAGTGGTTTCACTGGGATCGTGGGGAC: 0.436 ratio
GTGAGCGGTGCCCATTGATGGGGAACATCTTCCCCCTCTTCCTTGCCCCACCAGCTCACCTACGGGGGTTATTTGCAGATAGGAAAATAAATAAAGCCGGCATTCGTTAACCCTCTTCTGGCGCAAACTGCTGTTTGCTCTGGATGAATCATGGTCCTTTGGCGACGCCAGGCTCCGGGAGAGCAAAGCACCGTGTCAGGGCCATGATCCGGGGTGGCCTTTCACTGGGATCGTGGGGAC: 0.341 ratio
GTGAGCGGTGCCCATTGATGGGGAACAGGCCCGCCCCCTAGCCGCCGGGGTTGCTATGCGTTGCCGTGAAACGCCTGTCAATAAACCCTGTTTGGACAGTGGAGCAAGAGCACATGGGTTGTTTGCTTAGTGGTTAGAGGTTCAAAAGTCGACATTGTCCCGCTGCAAGCGATTACAAGTTCTTCCCCTTCCCGGGGCTCGGTCCCCTTGCACGCGGGTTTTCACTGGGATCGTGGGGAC: 0.44 ratio
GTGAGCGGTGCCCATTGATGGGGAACAGGCACAAGGTATGAATCACTAAGAATCTAGCAGCAGCTCTAGAAGCCTCCAAAGATAATTGGGGGGTGGAGTCACTTCCCCAACAGGGGGACGTAAATATGAAAGAACAGTGGATGGCCTAAATCAGTATGTGTCACTCTTTGTAAAGAGCCACAAGTGTTTGACTAGGGAAAAAGGAAAAGAGGCGAGAGTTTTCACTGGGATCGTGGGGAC: 0.0865 ratio
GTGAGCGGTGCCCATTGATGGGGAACCAAGACCCCTTGGCCCTCATCATGTTTTCCCAGCATCAAACCTTTAGACGTATTTAATGGCCCAAGGCATTCCAAGAATGAATATATTTGTGTGTACACAAGCAACCAACCAAAGAGATGGTTAATGTTTCATAAGACTGCCTAGTCACATTGTTGACATCTGAAACATCTTCTAATTTAAGACAGAGTTCAGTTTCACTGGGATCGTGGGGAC: 0.341 ratio
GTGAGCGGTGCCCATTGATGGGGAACGTCATTTATTTCATGTTGTCCTGAGATTGGATCTAAACTTTGAGCTCCTAATCATTGCTCAGATTGTGTGGCCTCGTAAGATTGTGCGTAATAAGTAATCTAGCATCTGTACACTTGTTAACTTAATGAGCTTCTGTATGTGACACTTTAAGCCTTTTTAAAAATTAAGTGCTGGGCTATGCTTGGTGTCTCATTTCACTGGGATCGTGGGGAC: -0.036 ratio
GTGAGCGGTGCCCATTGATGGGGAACATCTTCCCCCTCTTCCTTGCCCCACCAGCTCACCTTCCCGGGTTGTTTACTTTGAGCAAAGTAAACAAAGCCGGCATTCGTTAACCCTCTTCTGGCGCAAACTGCTGTTTGCTCTGGATGAATCATGGTCCTTTGGCGACGCCAGGCTCCGGGAGAGCAAAGCACCGTGTCAGGGCCATGATCCGGGGTGGCCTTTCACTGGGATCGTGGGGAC: 0.524 ratio
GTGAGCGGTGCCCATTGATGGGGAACGATATTTCCTTCTTGATATCCCTGTAGTCCCTCAAATTGTCTATATTCTGAGTCATTTCTAAAATAAAAGGCCTCAATGCCAAGAGTTGTACTTATTTGCTTTATAACCTGTTTGGGTAAATTTACTTCAGAGGTATCATTTTCTGGAGATACTTTCTCAGGTCCATATTTTAACTCCAAATCTGAAAGAAATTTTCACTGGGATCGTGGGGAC: 0.193 ratio

Single results of other studies
O=C(NS(=O)(=O)c1ccc(NCC2CCOCC2)c([N+](=O)[O-])c1)c1ccc(N2CCN(Cc3ccc(C(F)(F)F)cc3-c3ccc(Cl)cc3)CC2)cc1Oc1cnc2[nH]ccc2c1  remaining binding (Serine/threonine-protein kinase ULK1 (ULK1, Homo sapiens, UniProt O75385); cell-free assay, competition with immobilised ligand; 1 µM): 96%

A few entries again (block 1):
A13T: 12.4%
H34L: 25%
